Results from different studies.
Numbered parts are unrelated; each lists some results of a single study.
UniProt P48736, sequence (whole entry, looked up): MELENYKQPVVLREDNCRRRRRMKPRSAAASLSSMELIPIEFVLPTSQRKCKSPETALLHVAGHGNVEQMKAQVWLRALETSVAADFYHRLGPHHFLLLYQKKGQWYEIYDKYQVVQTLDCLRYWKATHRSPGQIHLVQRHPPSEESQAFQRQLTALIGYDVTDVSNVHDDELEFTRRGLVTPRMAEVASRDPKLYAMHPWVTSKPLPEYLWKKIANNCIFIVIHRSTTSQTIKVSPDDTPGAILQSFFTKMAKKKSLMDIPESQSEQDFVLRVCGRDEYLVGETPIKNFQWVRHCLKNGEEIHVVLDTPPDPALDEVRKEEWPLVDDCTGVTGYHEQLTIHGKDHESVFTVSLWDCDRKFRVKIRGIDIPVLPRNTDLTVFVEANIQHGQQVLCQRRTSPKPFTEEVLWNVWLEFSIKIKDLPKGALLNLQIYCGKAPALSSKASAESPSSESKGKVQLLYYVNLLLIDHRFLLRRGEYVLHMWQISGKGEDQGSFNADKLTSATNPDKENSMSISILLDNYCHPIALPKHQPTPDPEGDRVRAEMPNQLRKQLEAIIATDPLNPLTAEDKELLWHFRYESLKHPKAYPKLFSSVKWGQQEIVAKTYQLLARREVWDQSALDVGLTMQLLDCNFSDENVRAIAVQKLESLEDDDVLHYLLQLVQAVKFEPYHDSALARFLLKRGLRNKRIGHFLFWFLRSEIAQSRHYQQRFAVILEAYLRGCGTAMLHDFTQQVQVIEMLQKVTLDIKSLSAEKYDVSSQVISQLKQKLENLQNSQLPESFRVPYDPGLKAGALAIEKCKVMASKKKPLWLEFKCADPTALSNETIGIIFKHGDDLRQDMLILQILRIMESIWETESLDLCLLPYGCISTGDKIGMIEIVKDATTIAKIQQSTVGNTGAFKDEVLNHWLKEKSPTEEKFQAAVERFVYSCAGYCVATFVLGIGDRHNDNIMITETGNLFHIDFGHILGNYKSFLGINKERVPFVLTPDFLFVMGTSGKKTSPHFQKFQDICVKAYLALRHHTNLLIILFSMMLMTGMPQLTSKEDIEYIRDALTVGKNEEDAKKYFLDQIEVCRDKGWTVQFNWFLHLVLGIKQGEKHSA
UniProt O00329, sequence (whole entry, looked up): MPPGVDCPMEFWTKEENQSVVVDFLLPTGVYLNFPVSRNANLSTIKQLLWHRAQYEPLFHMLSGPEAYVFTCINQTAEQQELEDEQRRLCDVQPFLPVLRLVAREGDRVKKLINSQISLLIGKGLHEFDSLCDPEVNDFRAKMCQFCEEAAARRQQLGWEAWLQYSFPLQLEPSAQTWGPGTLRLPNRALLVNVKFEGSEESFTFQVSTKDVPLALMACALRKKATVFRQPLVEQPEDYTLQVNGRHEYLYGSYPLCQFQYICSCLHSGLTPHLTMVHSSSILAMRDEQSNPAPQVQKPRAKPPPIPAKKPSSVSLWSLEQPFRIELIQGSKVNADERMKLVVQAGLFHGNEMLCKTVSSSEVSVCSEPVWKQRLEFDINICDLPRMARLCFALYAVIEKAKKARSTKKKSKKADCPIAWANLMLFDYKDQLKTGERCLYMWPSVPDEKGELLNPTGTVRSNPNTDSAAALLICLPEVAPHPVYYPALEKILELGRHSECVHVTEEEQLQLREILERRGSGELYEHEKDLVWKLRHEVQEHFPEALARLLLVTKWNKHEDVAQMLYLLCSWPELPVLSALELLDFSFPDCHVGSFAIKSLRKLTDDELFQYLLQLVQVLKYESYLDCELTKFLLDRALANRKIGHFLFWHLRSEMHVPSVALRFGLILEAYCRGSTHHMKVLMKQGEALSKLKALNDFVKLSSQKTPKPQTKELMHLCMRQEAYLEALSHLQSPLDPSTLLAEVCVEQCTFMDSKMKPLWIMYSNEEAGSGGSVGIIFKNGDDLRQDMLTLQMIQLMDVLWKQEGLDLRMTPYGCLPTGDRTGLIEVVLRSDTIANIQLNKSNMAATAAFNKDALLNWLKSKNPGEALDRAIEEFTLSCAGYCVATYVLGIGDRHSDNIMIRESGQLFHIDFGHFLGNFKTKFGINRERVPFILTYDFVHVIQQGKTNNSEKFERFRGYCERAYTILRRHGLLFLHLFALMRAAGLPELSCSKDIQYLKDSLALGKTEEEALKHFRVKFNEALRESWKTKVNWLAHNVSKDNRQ
UniProt Q8TDR2, sequence (whole entry, looked up): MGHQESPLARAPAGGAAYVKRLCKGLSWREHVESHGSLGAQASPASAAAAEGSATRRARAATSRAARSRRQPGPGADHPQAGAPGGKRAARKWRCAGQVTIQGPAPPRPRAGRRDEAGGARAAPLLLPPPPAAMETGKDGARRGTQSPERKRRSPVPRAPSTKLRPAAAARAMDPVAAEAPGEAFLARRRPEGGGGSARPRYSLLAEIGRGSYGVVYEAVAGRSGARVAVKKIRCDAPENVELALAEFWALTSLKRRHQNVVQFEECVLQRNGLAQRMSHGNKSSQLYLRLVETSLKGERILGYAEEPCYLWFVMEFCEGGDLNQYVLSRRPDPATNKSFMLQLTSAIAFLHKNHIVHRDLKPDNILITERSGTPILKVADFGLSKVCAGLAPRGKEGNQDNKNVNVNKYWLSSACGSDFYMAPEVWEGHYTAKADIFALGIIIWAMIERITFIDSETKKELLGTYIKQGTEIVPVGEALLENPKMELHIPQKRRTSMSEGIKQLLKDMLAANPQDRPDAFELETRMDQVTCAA
UniProt Q92918, sequence (whole entry, looked up): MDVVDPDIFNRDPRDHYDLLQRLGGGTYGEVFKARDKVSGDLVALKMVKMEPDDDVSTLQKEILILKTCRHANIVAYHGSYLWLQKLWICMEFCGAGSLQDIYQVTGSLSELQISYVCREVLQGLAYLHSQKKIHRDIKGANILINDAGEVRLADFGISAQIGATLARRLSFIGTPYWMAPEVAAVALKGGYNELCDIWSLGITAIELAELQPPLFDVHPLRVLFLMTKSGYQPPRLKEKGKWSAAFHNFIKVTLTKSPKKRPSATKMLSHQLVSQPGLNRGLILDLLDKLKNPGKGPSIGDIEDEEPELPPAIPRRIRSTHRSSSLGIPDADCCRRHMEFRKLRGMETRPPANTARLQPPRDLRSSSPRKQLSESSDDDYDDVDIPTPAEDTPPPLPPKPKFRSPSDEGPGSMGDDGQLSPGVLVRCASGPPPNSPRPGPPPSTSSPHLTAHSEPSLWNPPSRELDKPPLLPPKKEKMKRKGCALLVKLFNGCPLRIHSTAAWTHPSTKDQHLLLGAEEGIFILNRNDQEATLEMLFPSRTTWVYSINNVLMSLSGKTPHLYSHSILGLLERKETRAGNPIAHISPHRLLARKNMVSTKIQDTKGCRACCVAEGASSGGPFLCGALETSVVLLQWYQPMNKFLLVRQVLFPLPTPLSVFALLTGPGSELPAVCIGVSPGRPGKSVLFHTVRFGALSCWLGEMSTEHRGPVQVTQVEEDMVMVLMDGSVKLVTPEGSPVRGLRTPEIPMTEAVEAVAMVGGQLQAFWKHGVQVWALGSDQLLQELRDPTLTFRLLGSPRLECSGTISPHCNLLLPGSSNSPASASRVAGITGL
UniProt Q9Y2H1, sequence (whole entry, looked up): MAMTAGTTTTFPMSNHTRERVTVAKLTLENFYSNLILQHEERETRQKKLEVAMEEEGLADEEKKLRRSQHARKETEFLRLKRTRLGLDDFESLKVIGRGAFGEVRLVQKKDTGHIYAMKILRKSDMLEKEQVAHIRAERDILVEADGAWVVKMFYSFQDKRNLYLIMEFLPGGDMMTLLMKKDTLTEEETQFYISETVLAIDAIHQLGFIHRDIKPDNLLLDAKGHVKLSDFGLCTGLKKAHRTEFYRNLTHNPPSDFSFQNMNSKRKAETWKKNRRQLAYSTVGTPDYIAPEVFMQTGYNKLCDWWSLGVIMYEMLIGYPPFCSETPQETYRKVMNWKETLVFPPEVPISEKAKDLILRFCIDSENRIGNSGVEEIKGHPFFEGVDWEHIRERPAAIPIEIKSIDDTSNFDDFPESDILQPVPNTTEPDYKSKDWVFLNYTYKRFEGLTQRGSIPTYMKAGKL

Sample 1
Target: Protein-tyrosine kinase 6 (PTK6, Homo sapiens, UniProt Q13882)
UniProt Q13882, sequence (whole entry, looked up): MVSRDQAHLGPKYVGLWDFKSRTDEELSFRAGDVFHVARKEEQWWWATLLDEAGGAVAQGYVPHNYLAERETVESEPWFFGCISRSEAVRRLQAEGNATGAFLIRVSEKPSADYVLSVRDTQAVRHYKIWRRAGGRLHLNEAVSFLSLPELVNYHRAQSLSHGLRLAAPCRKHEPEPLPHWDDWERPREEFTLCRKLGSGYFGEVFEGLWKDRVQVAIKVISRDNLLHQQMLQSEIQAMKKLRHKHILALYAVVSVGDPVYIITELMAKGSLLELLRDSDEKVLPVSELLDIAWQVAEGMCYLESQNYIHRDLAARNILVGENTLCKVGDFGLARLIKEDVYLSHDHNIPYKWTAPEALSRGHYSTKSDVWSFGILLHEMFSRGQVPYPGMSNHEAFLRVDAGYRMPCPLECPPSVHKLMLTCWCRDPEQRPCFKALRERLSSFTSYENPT
Read-out: enzyme activity
Mode: inhibitor
Tested at: 0.5 µM
Baseline: control
Compound | remaining activity [%]
c1ccc(-c2[nH]ncc2-c2ccnc3ccccc23)nc1 | 70.9
COc1cc2ncnc(Nc3ccc(O)c(Br)c3)c2cc1OC | 20.1
CCN(CC)C(=O)c1ccc(Nc2nc(OCC3CCCCC3)c3[nH]cnc3n2)cc1 | 30.7
O=C(NC(NC(=S)Nc1ccc(F)c([N+](=O)[O-])c1)C(Cl)(Cl)Cl)C(c1ccccc1)c1ccccc1 (stereo not shown) | 87.8
CCN(CC)CCNC(=O)c1c(C)[nH]c(/C=C2\C(=O)Nc3ccc(Cl)cc32)c1C | 51.3
Cc1nc2cc3nc(-c4cccs4)cnc3cc2n1C | 88.6
CN(C)C[C@H]1CCn2c(c(C3=C(c4cn(C)c5ccccc45)C(=O)NC3=O)c3ccccc32)C1 | 90.4
CCN(CC)CCNC(=O)c1c(C)[nH]c(/C=C2\C(=O)Nc3ccc(F)cc32)c1C | 84.5
c1ccc(-c2cnc(Nc3ccc(OCCN4CCCC4)cc3)s2)cc1 | 80.8
CCOc1nc(NC(=O)Cc2cc(OC)ccc2OC)cc(N)c1C#N | 93.6
O=C(Nc1cccc(Nc2nccc(Nc3cccc(C(F)(F)F)c3)n2)c1)C1CC1 | 72.3

Sample 2
Target: Synaptic vesicular amine transporter (SLC18A2, Homo sapiens, UniProt Q05940)
UniProt Q05940, sequence (whole entry, looked up): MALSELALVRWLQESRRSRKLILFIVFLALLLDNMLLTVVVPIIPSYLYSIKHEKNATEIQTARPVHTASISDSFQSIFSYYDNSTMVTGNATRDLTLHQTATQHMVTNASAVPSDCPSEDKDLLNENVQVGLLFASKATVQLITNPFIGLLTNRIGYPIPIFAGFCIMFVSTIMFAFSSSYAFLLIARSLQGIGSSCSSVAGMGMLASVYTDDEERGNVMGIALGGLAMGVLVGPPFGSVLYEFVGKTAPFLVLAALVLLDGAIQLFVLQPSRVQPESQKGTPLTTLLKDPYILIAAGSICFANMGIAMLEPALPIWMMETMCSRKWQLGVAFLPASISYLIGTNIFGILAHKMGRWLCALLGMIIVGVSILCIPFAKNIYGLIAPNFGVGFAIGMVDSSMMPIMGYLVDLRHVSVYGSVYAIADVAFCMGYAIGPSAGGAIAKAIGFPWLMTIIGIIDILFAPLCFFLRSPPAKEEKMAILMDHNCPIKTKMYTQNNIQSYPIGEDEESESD
Read-out: transporter uptake
Mode: inhibitor
Structure (SMILES) | IC50
CSc1nc2cc(Cl)c(Oc3cccc(Cl)c3Cl)cc2[nH]1 | 1.48 µM
CC(CCc1ccc(O)cc1)NCCc1ccc(O)c(O)c1 (stereo not shown) | 0.128 µM
CN1CC2c3ccccc3Oc3ccc(Cl)cc3C2C1 (stereo not shown) | 4.32 µM
NC(=O)C(c1ccccc1)(c1ccccc1)[C@@H]1CCN(CCc2ccc3c(c2)CCO3)C1 | 0.7 µM
CN(C)CCCN1c2ccccc2CCc2ccc(Cl)cc21 | 8.2 µM

Sample 3
Cell line: A-375
Tested at: 100 µM
Time: 36 h
SMILES | viability [%]
CCCN(CCC)CCc1cccc2c1CC(=O)N2 | 102
Cc1cc(CC(=O)O)n(C)c1C(=O)c1ccc(Cl)cc1 | 106
O=C(O)c1cc(/N=N/c2ccc(O)c(C(=O)O)c2)ccc1O | 96.5
Nc1ccc(S(=O)(=O)Nc2ncccn2)cc1 | 101
COc1cc2c(cc1OC)[C@H]1CC(=O)[C@H](CC(C)C)CN1CC2 (racemic) | 63.1
NC(=O)N[C@@H](CCC(=O)O)C(=O)O | 110
CN(C)CCN(Cc1ccccc1)c1ccccn1 | 95.4
C[C@@H](O)[C@H]1C(=O)N2C(C(=O)O)=C(S[C@@H]3CN[C@H](CNS(N)(=O)=O)C3)[C@H](C)[C@H]12 | 110
CC(C)(Oc1ccc(CCNC(=O)c2ccc(Cl)cc2)cc1)C(=O)O | 102
Nc1ccn([C@H]2CC[C@@H](CO)O2)c(=O)n1 | 116
CS(=O)(=O)n1cc2c(n1)CN([C@H]1CO[C@H](c3cc(F)ccc3F)[C@@H](N)C1)C2 | 80.5

Sample 4
SMILES: CNC(=O)c1ccc(Nc2ncc(C(F)(F)F)c(NCc3nccnc3N(C)S(C)(=O)=O)n2)cc1
Tested at: 0.1 µM
target | read-out | method | remaining binding
MAP3K3 (Homo sapiens, UniProt Q99759) | cell-free assay | competition with immobilised ligand | 81%
MAP2K3 (Homo sapiens, UniProt P46734) | cell-free assay | competition with immobilised ligand | 48%
PIK3CG (Homo sapiens, UniProt P48736) | cell-free assay | competition with immobilised ligand | 100%
TXK (Homo sapiens, UniProt P42681) | binding | competition with immobilised ligand | 98%
SIK1 (Homo sapiens, UniProt P57059) |  | competition binding | 90%
CSNK1G3 (Homo sapiens, UniProt Q9Y6M4) | cell-free assay | competition with immobilised ligand | 100%
ULK1 (Homo sapiens, UniProt O75385) | cell-free assay | competition with immobilised ligand | 47%
MAK (Homo sapiens, UniProt P20794) | cell-free assay | competition with immobilised ligand | 85%
MAPK6 (Homo sapiens, UniProt Q16659) | cell-free assay | competition with immobilised ligand | 71%
CAMK2B (Homo sapiens, UniProt Q13554) | cell-free assay | competition with immobilised ligand | 86%
GRK1 (Homo sapiens, UniProt Q15835) | cell-free assay | competition with immobilised ligand | 99%
Tyrosine-protein kinase JAK1, JH2 (JAK1, Homo sapiens, UniProt P23458) | cell-free assay | competition with immobilised ligand | 29%
MAP4K1 (Homo sapiens, UniProt Q92918) | cell-free assay | competition with immobilised ligand | 18%
PIK3CD (Homo sapiens, UniProt O00329) | cell-free assay | competition with immobilised ligand | 90%
STK38L (Homo sapiens, UniProt Q9Y2H1) | cell-free assay | competition with immobilised ligand | 73%
NEK5 (Homo sapiens, UniProt Q6P3R8) | cell-free assay | competition with immobilised ligand | 100%
STK35 (Homo sapiens, UniProt Q8TDR2) | cell-free assay | competition with immobilised ligand | 100%
WEE1 (Homo sapiens, UniProt P30291) | cell-free assay | competition with immobilised ligand | 95%
Tyrosine-protein kinase ABL1, phosphorylated (ABL1, Homo sapiens, UniProt P00519, F317I) | binding |  | 100%
BMX (Homo sapiens, UniProt P51813) | cell-free assay | competition with immobilised ligand | 71%
MELK (Homo sapiens, UniProt Q14680) | cell-free assay | competition with immobilised ligand | 23%
ERBB2 (Homo sapiens, UniProt P04626) | cell-free assay | competition with immobilised ligand | 100%
MAPKAPK2 (Homo sapiens, UniProt P49137) | cell-free assay | competition with immobilised ligand | 100%
MERTK (Homo sapiens, UniProt Q12866) | cell-free assay | competition with immobilised ligand | 54%
ULK2 (Homo sapiens, UniProt Q8IYT8) | cell-free assay | competition with immobilised ligand | 75%

A few entries again (sample 4):
target | read-out | method | remaining binding
MAP4K1 (Homo sapiens, UniProt Q92918) | cell-free assay | competition with immobilised ligand | 18%
TXK (Homo sapiens, UniProt P42681) | binding | competition with immobilised ligand | 98%
PIK3CG (Homo sapiens, UniProt P48736) | cell-free assay | competition with immobilised ligand | 100%
WEE1 (Homo sapiens, UniProt P30291) | cell-free assay | competition with immobilised ligand | 95%
MAK (Homo sapiens, UniProt P20794) | cell-free assay | competition with immobilised ligand | 85%
